Measurements of several laboratories.
Protocols differ between the studies behind these lines. Numbers after ± are the reported error.
CDK2 with cyclin A: Cyclin-dependent kinase 2, with cyclin A (CDK2, Homo sapiens, UniProt P24941)

`O=C(O)CC[C@H](NC(=O)N[C@@H](CCCCNC(=O)[C@H](Cc1ccc2ccccc2c1)NC(=O)CCCCCNC(=O)CN1CCN(CC(=O)O)CCN(CC(=O)O)CCN(CC(=O)O)CC1)C(=O)O)C(=O)O` [gallium-68 labelled] gave a tissue uptake of 4.37 ± 0.67 %ID/g (gamma counting; mouse, 22Rv1 xenograft, lung; intravenous, 3.7 MBq, 2 h).
The EC50 of `NS(=O)(=O)OC[C@H]1C[C@@H](Nc2ccnc3cc(-c4cccc(SC(F)(F)F)c4)nn23)[C@H](O)[C@@H]1O` is reported as 0.285 µM (BRD4-HiBiT cells; BRD4 degradation rescue, inhibitor; 8 h, 50% degradation rescued, together with: dBET6 500 nM).
The EC50 of `Cc1ccc(-c2nc3ccccc3s2)cc1NC(=O)c1cc([N+](=O)[O-])c(N(C)CCN(C)C)cc1Cl` is reported as 1.5 µM (J774.A1; cytotoxicity).
For `Cn1cc(-c2ccc(-c3cncc(Cl)c3N3CCC4(CCNC4=O)CC3)cc2)cn1`, “log2 fold change” read -2.65 (COLO 205; gene expression, microarray, measured: HIST1H4F mRNA; concentration not given, 6 h; reference: untreated cells).
`CCOC(=O)C1=C(C)NC2=C(C(=O)OC(c3ccc(OC)c(OC)c3)C2)C1c1ccc(Cl)cc1C` (centres unmarked) has an EC50 of over 20 µM (J774.A1; cytotoxicity).
The cough incidence of `CNCc1ccc(-c2[nH]c3cc(F)cc4c3c2CCNC4=O)cc1` is reported as 3.8% (patients; oral, 600 mg twice daily, grade 1).
`CCOC(=O)C1=C(C)NC2=C(C(=O)OC(c3ccccc3OC)C2)C1c1ccccc1Cl` (centres unmarked) has an EC50 of over 20 µM (J774.A1; cytotoxicity).
For `Cc1ccc(-c2nc3ccccc3s2)cc1NC(=O)c1cc([N+](=O)[O-])c(N2CC3(CNC3)C2)cc1Cl`, the EC50 was 3.9 µM (J774.A1; cytotoxicity).
With `CC(C)C[C@H](NC(=O)C[C@H](O)[C@H](CC(C)C)NC(=O)[C@H](Cc1c[nH]cn1)NC(=O)CNC(=O)[C@@H](NC(=O)[C@H](C)NC(=O)[C@H](Cc1c[nH]c2ccccc12)NC(=O)[C@H](CCC(N)=O)NC(=O)[C@@H](Cc1ccccc1)NC(=O)COCCOCCNC(=O)CCC(C(=O)O)N1CCN(CC(=O)O)CCN(CC(=O)O)CCN(CC(=O)O)CC1)C(C)C)C(N)=O` (some centres unmarked) [lutetium-177 labelled] the tissue uptake was 3.9 ± 0.9 %ID (BALB/c nu/nu mice, carcass; 250 pmol, 1 h, together with: PA 300 µg).
`COc1ccc(C2CC(=O)C3=C(C2)NC(C)=C(C(=O)O)C3c2ccccc2Cl)cc1OC` (centres unmarked) has an EC50 of over 20 µM (J774.A1; cytotoxicity).
`COc1cc([N+](=O)[O-])ccc1NC(=O)CN1CCOCC1` has a Kd of over 100 µM (CDK2 with cyclin A).
`CCn1cc(-c2cc(Cn3ccnc3)cc3c2CCN([C@H](c2cc(OC)ccn2)C2CC2)C3=O)c(C(F)(F)F)n1` has an EC50 of 0.37 µM (MOLM-13; cell growth, inhibitor; 120 h).
`CCOC(=O)C1=C(C)NC2=C(C(=O)OC(c3ccc(OC)c(OC)c3)C2)C1c1ccccc1` (centres unmarked) has an EC50 of over 20 µM (J774.A1; cytotoxicity).
Under “cells with numerical aberrations”, `c1csc(CNc2cc[nH]n2)c1` is recorded as 0% (human peripheral blood lymphocytes (female); 2000 µg/mL, 4 h, repeat, together with: without S9).
With `CCOC(=O)C1=C(C)NC2=C(C(=O)OC(c3ccc(OC)c(OC)c3)C2)C1c1ccc(Cl)cc1` (centres unmarked) the EC50 was over 20 µM (J774.A1; cytotoxicity).
`CN1CCN(c2cc(Cl)c(C(=O)Nc3cncc(-c4nc5ccccc5s4)c3)cc2[N+](=O)[O-])CC1` has an EC50 of 1.8 ± 1.1 µM (J774.A1; cytotoxicity).
`Cc1nn(-c2nc3c(F)cc(F)cc3s2)c(O)c1C(c1cccc(C(F)(F)F)c1)c1c(C)nn(-c2nc3c(F)cc(F)cc3s2)c1O` has an EC50 of 15.9 ± 1.5 µM (THP1-Dual; IFNB1 luciferase reporter, inhibitor; together with: HT-DNA).
`CC(C)C[C@H](NC(=O)CNC(=O)c1cc(Cl)ccc1Cl)B(O)O` gave an EC50 of 0.196 µM (BRD4-HiBiT cells; BRD4 degradation rescue, inhibitor; 4 h, 50% degradation rescued, together with: dBET6 500 nM).
`CCOC(=O)C1=C(C)NC2=C(C(=O)OC(c3ccc(OC)c(OC)c3)C2)C1c1ccccc1Cl` (centres unmarked) has an EC50 of over 20 µM (J774.A1; cytotoxicity).
With `O=C(Nc1cccc(-c2nc3ccccc3o2)c1)c1cc([N+](=O)[O-])c(F)cc1Cl` the EC50 was 1.9 ± 0.5 µM (J774.A1; cytotoxicity).
`Cc1cc(OCc2nnc(SC3CCCC3)n2-c2cccnc2)ccc1-c1ccc(S(C)(=O)=O)cc1` has an EC50 of 12.2 µM (BRD4-HiBiT cells; BRD4 degradation rescue, inhibitor; 4 h, 50% degradation rescued, together with: dBET6 500 nM).
For `CCCC1=C(C(=O)OCC)C(c2ccc(Cl)cc2C)C2=C(CC(c3cc(OC)ccc3OC)CC2=O)N1` (centres unmarked), the EC50 was over 20 µM (J774.A1; cytotoxicity).
`CC(C)[C@H](NC(=O)[C@H](Cc1ccc(O)cc1)NC(=O)[C@H](Cc1ccc(O)cc1)NC(=O)[C@@H]1CCCN1C(=O)[C@H](CCC(=O)O)NC(=O)[C@H](CCC(=O)O)NC(=O)[C@H](Cc1c[nH]c2ccccc12)NC(=O)[C@@H]1CCCN1C(=O)[C@@H](NC(=O)[C@H](CCC(N)=O)NC(=O)c1ccc2c(c1)C(=O)OC21c2ccc(O)cc2Oc2cc(O)ccc21)C(C)C)C(=O)N[C@H](C(=O)N[C@@H](CCCCN)C(=O)N[C@@H](CCCCN)C(=O)N[C@@H](CO)C(=O)N[C@@H](CO)C(=O)NCC(=O)NCC(N)=O)C(C)C` — result for “total plasma concentration”: “not detected” (human, plasma; intravenous infusion, 100 mg, predose 0 min, day 1).
For `Cc1nn(-c2nc3ccccc3[nH]2)c(O)c1C(c1ccccn1)c1c(C)nn(-c2nc3ccccc3[nH]2)c1O`, the EC50 was over 20 µM (THP1-Dual; IFNB1 luciferase reporter, inhibitor; together with: HT-DNA).
With `CCCC1=C(C(=O)OCC)C(c2ccccc2Cl)C2=C(CC(c3ccc(OC)c(OC)c3)CC2=O)N1` (centres unmarked) the EC50 was over 20 µM (J774.A1; cytotoxicity).
`NC(=O)c1cnc2[nH]ccc2c1N[C@@H]1[C@@H]2CC3C[C@H]1C[C@@](O)(C3)C2` gave a percent change of -0.5% (CD8+ CD28+ naive T cells, flow cytometry; Caucasian humans, peripheral blood; 20 mg single dose; reference: baseline).
`O=C(Cc1ccccc1[N+](=O)[O-])Nc1ccccc1C(=O)N1CCOCC1` gave a Kd of over 100 µM (CDK2 with cyclin A).
For `CC[C@H](C)[C@H](NC(=O)[C@H](CCC(=O)O)NC(=O)[C@H](CC(=O)O)NC(=O)CNC(=O)[C@H](CC(C)C)NC(=O)[C@H](CCCNC(=N)N)NC(=O)[C@H](CCCNC(=N)N)NC(=O)[C@H](CC(C)C)NC(=O)CNC(=O)[C@H](CCC(N)=O)NC(=O)[C@@H](NC(=O)[C@H](CCSC)NC(=O)[C@H](Cc1c[nH]c2ccccc12)NC(=O)[C@@H](NC(=O)[C@H](CCC(=O)O)NC(=O)[C@@H]1CCCN1C(=O)[C@H](CCCNC(=N)N)NC(C)=O)[C@@H](C)CC)[C@@H](C)O)C(=O)N[C@@H](CC(N)=O)C(=O)N[C@@H](C)C(=O)N[C@@H](Cc1ccc(O)cc1)C(=O)N[C@@H](Cc1ccc(O)cc1)C(=O)N[C@@H](C)C(=O)N[C@@H](CCCNC(=N)N)C(N)=O`, the EC50 was 3.3 ± 1.7 µM (KMS-34; mitochondrial depolarization, BH3 profiling JC-1; 3 h).
`Nc1cccc2c1CN(C1CCC(=O)NC1=O)C2=O` (centres unmarked) gave an EC50 of 7.27 µM (BRD4-HiBiT cells; BRD4 degradation rescue, inhibitor; 4 h, 50% degradation rescued, together with: dBET6 500 nM).
For `CN1CC(Oc2cnc(C#N)cc2-c2ccn3nc(NC(=O)C4CC4)cc3c2)C1`, the EC50 was 0.7 µM (human monocyte-derived macrophages; cytokine release increase, measured: IL-10; together with: LPS).
`CC(C)C[C@@H](C=O)NC(=O)[C@H](CC(C)C)NC(=O)[C@H](CC(C)C)NC(=O)OCc1ccccc1` gave an EC50 of 0.356 µM (BRD4-HiBiT cells; BRD4 degradation rescue, inhibitor; 8 h, together with: dBET6 500 nM).
`CCn1cc(-c2cc(Cn3ccoc3=N)cc3c2CCN([C@@H](C)c2cc(OC)ccn2)C3=O)c(C(F)(F)F)n1` gave an EC50 of 4.03 µM (RCM-1; cell growth, inhibitor; 120 h).
With `Cc1ccc(-c2nc3ccccc3o2)cc1NC(=O)c1cc([N+](=O)[O-])c(N2CCN(C)CC2)cc1Cl` the EC50 was 2.6 ± 2.1 µM (J774.A1; cytotoxicity).
For `CC(C)NCC(O)c1ccc(O)c(O)c1` (centres unmarked), the sarcomere length was 1.49 µm (ventricular cardiomyocytes, C57BL/6 mouse; dose not given, 0.528 s).
The EC50 of `COc1cccc2c1C(=O)c1c(O)c3c(c(O)c1C2=O)C[C@@](O)(C(=O)CO)C[C@@H]3O[C@H]1C[C@H](N)[C@H](O)[C@H](C)O1` is reported as 0.088 ± 0.01 µM (PPC-1; cell viability, MTT; 72 h).
`CC(C)C[C@H](NC(=O)[C@H](Cc1ccccc1)NC(=O)c1cnccn1)B(O)O` has an EC50 of 0.0847 µM (BRD4-HiBiT cells; BRD4 degradation rescue, inhibitor; 8 h, 50% degradation rescued, together with: dBET6 500 nM).
The EC50 of `COc1cnc2cccc(N3CCc4c(cc(Cn5ccnc5C)cc4-c4cn(C)nc4C(F)(F)F)C3=O)c2c1` is reported as 13 µM (RL95-2; cell growth, inhibitor; 120 h).
`COC[C@H](NC(=O)c1cnc(C)s1)C(=O)N[C@@H](COC)C(=O)N[C@@H](Cc1ccccc1)C(=O)[C@@]1(C)CO1` has an EC50 of 4.54 µM (BRD4-HiBiT cells; BRD4 degradation rescue, inhibitor; 8 h, together with: dBET6 500 nM).
`O=C1C[C@@H](c2ccc(O)cc2)Oc2cc(O)cc(O)c21` has an EC50 of 31 µM (HepG2-ARE-Luc; Nrf2-ARE reporter gene, activator).
With `NS(=O)(=O)OC[C@@H]1C[C@@H](n2ccc3c(N[C@H]4CCc5ccccc54)ncnc32)C[C@@H]1O` the EC50 was 0.0907 µM (BRD4-HiBiT cells; BRD4 degradation rescue, inhibitor; 8 h, together with: dBET6 500 nM).
The EC50 of `COc1ccc(S(=O)(=O)Nc2ccc(NS(=O)(=O)c3ccc(OC)cc3)c3ccccc23)cc1` is reported as over 30 µM (SH-SY5Y Neh2-luc; reporter gene; 3 h).

A few entries again:
With `Cc1ccc(-c2nc3ccccc3o2)cc1NC(=O)c1cc([N+](=O)[O-])c(N2CCN(C)CC2)cc1Cl` the EC50 was 2.6 ± 2.1 µM (J774.A1; cytotoxicity).
`CC(C)C[C@H](NC(=O)CNC(=O)c1cc(Cl)ccc1Cl)B(O)O` gave an EC50 of 0.196 µM (BRD4-HiBiT cells; BRD4 degradation rescue, inhibitor; 4 h, 50% degradation rescued, together with: dBET6 500 nM).
With `O=C(Nc1cccc(-c2nc3ccccc3o2)c1)c1cc([N+](=O)[O-])c(F)cc1Cl` the EC50 was 1.9 ± 0.5 µM (J774.A1; cytotoxicity).
`CCn1cc(-c2cc(Cn3ccoc3=N)cc3c2CCN([C@@H](C)c2cc(OC)ccn2)C3=O)c(C(F)(F)F)n1` gave an EC50 of 4.03 µM (RCM-1; cell growth, inhibitor; 120 h).
